Results from different studies.
Parts stem from different laboratories: compare values within a part only. Substitutions count along the parent as printed.

Series 1 — technique: RNA Bind-n-Seq; molecule type: RNA; medium: in vitro; concentration: 365 nM; relative to: no-protein control; reading: higher = stronger binding
Target: RNA binding protein fox-1 homolog 2, RRM domain, GST-SBP tag (RBFOX2, Homo sapiens, UniProt O43251-10, residues 100-194)
Setting: natural RNA segment, single round, ends assumed
Construct (chain): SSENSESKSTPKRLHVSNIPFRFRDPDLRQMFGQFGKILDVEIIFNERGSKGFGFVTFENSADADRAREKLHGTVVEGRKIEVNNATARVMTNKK
| Strand | RBNS enrichment (R) |
| --- | --- |
| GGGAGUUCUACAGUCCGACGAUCCUUUGGAACACAGGGUAUGCCUCUGGUUAAUAAGCUAAGCAAUAAAAUUACACGAAAUAUAAAUGUUAAUGCUUUGUUUUAAAAAGCUAAGCCAGCAUUUACUAAGUUGGUGGAAUUCUCGGGUGCCAA | 0.297 |
| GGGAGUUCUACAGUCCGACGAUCCAGAACUGCCCCCACUGUCCCCCUACCCACCGAUGGAGCCCCCAGAUAGAGCUGGGUGGCCUGUUUCUGCAGCCCUUGGGCAGUUCUCACUCCUAGGAGAGCCAACCUCGUGGAAUUCUCGGGUGCCAA | 0.406 |
| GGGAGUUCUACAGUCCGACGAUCGUUAUAUAUUUGGCAUAAAAUACGGCUUACGUUGCUUAAGAUUCUCAGGGAUAAACUUCCUUUUGCUAAAUGCAUUCUUUCUGCUUUUAGAAAUGUAGACAUAAACACUCUGGAAUUCUCGGGUGCCAA | 1.05 |
| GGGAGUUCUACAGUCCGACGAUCUCUUUCUGUUCUCUUUACUCUUCUCACAGAUCAGAUCACUCCAUAGAAGCCUGUGGGUUUCGAUGGUUUCUUCUAUACACCUUUUUGGUUGACCAGUAUUACUAUACAAUUGGAAUUCUCGGGUGCCAA | 0.451 |
| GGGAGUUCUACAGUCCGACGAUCUCCACUUCACUCUGAGUGCUUUCAGGAUCUGGGGCUUCAAGACUCACUGCUUCAGUCAGCCUUCAUUAGCACCAAAGACUCCAUGAAGGUCGUCCCCCACACAAACAUACUGGAAUUCUCGGGUGCCAA | 0.369 |
| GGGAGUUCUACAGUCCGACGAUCACCUACGUACUUAUAUCAGCACCAUGUAUGUAGGUGUGAUAGUACUUUCAAACAGCGCCUCCACCUGGCCUACUCUGUUAUUUCCACCUGUUUGGGUAGGGCCAUUUAACUGGAAUUCUCGGGUGCCAA | 1.24 |
| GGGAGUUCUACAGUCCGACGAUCGGGAAAGGGAAGAGAUGGGGACAGCUGGUCCCAGGAGAUGCAGGCCCUUGCCUUAGGAUCCUGGUGCAGGUCCUAGUUGUUAUCUGCUCAGCCGGAGUUGAGAAGGAGUAUGGAAUUCUCGGGUGCCAA | 1.32 |
| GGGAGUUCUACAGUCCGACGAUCCGUUUUACAAAGGAUGAUCCGACAGUGUGUCGACAUAAACUUUUACAACUGCACAGCAGCCAAAAAAGAAAAAAAAGAAAAAAAAAAACUUUAACUGGACGGACGUUGUUUGGAAUUCUCGGGUGCCAA | 0.432 |
| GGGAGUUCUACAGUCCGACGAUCGCAAAGCCUAGUGAAGGCUUCUCUCUGUGGGAUGGGAUGGUGGAGGGCCACAUGGGAGGCUCACCCCCUUCUCCAUCCACAUGGGAGCCGGGUCUGCCUCUUCUGGGAGGUGGAAUUCUCGGGUGCCAA | 0.296 |
| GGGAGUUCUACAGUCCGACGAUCGGUAGGAGUCAGGGCCCAUCCAGACCAGUCACCAUCCAGCCAUGCACUGUCAUCAUCACCCAUAAUGCCUGCAAAGGCCUAGCGGUCCUCAGCCCUGCACAUGAGAGAGGUGGAAUUCUCGGGUGCCAA | 0.304 |

Series 2 — target: CRIPT, C-terminal peptide; technique: DHFR complementation, deep sequencing; medium: yeast; relative to: wild type; reading: higher = weaker binding
Setting: single substitutions, model-inferred values
Starting sequence: ERBIN, PDZ domain 1 (human); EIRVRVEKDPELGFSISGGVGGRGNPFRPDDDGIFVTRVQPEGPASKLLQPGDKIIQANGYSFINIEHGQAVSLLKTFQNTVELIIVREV; partner TKNYKQTSV
| Substitution | binding free energy change [kcal/mol] |
| --- | --- |
| A71N | 1.32 |
| G69N | -0.16 |
| L75N | 0.539 |
| D31F | 1.19 |
| K8D | 1.36 |
| I34R | 0.229 |
| E42L | 0.0896 |
| G21S | 0.286 |
| S17D | 1.51 |

Series 3 — technique: protein-binding microarray; molecule type: double-stranded DNA, one strand shown; medium: in vitro; concentration: 2200 nM top; setting: 60-bp whole probe; together with: salmon DNA 0.4 mg/ml; relative to: random background probes; reading: higher = stronger binding; shared flanks, not repeated: GCCTAGCAC … GTCTTGATTCGCTTGACGCTGCTG
Target: Interferon regulatory factor 7, full length, phosphomimetic (IRF7, Homo sapiens, UniProt Q92985, residues 1-503, S471D/S472D/S475D/S476D/S477D/S483D/S484D/S487D)
Construct (chain): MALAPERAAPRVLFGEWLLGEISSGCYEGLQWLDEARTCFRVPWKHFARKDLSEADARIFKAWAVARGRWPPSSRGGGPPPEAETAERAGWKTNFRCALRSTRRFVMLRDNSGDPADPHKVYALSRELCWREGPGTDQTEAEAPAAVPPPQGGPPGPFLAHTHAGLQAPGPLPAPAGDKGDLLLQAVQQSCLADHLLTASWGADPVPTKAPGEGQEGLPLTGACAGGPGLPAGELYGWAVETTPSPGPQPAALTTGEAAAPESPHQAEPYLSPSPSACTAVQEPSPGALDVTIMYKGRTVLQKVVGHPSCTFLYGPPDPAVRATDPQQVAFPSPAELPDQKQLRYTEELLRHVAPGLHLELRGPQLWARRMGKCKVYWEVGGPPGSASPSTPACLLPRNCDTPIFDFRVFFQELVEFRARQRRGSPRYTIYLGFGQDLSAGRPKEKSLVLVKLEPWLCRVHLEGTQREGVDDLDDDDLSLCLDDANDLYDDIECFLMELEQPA
| Strand | fitted relative affinity [z-score] |
| --- | --- |
| TTAGGTTTCCTTCTCTTTTAGTGCTAG | 2.21 |
| TAGACTCTGTGCTTTCCTCGTGTGCTA | 1.21 |
| TTAGGTTGCGGTATCGGTTAGTGCTAG | 0.691 |
| TTAGGTATCGGGTTTCGCTTAGTGCTA | 2.75 |
| GTCGTCACTGCCATAATGCGGTGCTAG | 0.233 |
| GACGATCTCAGTATCGGGACGTGCTAG | 0.0586 |
| TAAGAACTGGGGACTGGATTAGTGCTA | -0.448 |
| GACGAATTCAGTTCCGAGACGTGCTAG | 0.577 |
| CACGGACTGGGTATCGGGACGTGCTAG | -0.745 |
| TTAGATATCAGGCTGGATTAGTGCTAG | -0.125 |
| GACGACATCGGGTATCGAGACGTGCTA | -0.142 |
| CTTTCTCTCTGTGACACAGAGTGCTAG | 2.39 |
| TCATCTTTACTTCACTCACTGTGCTAG | 1.7 |
| GACGGTCTCGCTATCGGGACGTGCTAG | 0.00631 |

Other studies, line by line
| Molecule | target | assay | system | conditions | scale | quantity | result |
| --- | --- | --- | --- | --- | --- | --- | --- |
| PPVIIKYIIINRF | human cyclin B2 | peptide binding, yeast competitive growth sequencing | peptide, Saccharomyces cerevisiae, cyclin B2-Cln2 fusion | concentration not given, library 2 | direction not given | binding enrichment score | -0.891 |
| PhoQ, residues 284 288 289 292 302 303 SIHMAM | PhoP, residues 12 14 15 18 19 AQALL (Escherichia coli, UniProt P23836) | Sort-seq, measured: YFP reporter | E. coli | PhoQ-PhoP variant library, together with: 10 µM Mg2+ | relative to: high Mg2+ state, higher = stronger signaling | fold induction | 10.3 |
| GSAKRRLFGEDPP | human cyclin A2 | cyclin docking binding, deep mutational scanning | peptide, yeast cyclin A2-Cln2 system | – | direction not given | score minus score, wild type | 0 |

Repeated from above (series 1):
| Strand | RBNS enrichment (R) |
| --- | --- |
| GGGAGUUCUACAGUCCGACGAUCGUUAUAUAUUUGGCAUAAAAUACGGCUUACGUUGCUUAAGAUUCUCAGGGAUAAACUUCCUUUUGCUAAAUGCAUUCUUUCUGCUUUUAGAAAUGUAGACAUAAACACUCUGGAAUUCUCGGGUGCCAA | 1.05 |
| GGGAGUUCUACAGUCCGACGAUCUCUUUCUGUUCUCUUUACUCUUCUCACAGAUCAGAUCACUCCAUAGAAGCCUGUGGGUUUCGAUGGUUUCUUCUAUACACCUUUUUGGUUGACCAGUAUUACUAUACAAUUGGAAUUCUCGGGUGCCAA | 0.451 |
| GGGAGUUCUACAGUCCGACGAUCUCCACUUCACUCUGAGUGCUUUCAGGAUCUGGGGCUUCAAGACUCACUGCUUCAGUCAGCCUUCAUUAGCACCAAAGACUCCAUGAAGGUCGUCCCCCACACAAACAUACUGGAAUUCUCGGGUGCCAA | 0.369 |
| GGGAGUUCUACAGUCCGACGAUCACCUACGUACUUAUAUCAGCACCAUGUAUGUAGGUGUGAUAGUACUUUCAAACAGCGCCUCCACCUGGCCUACUCUGUUAUUUCCACCUGUUUGGGUAGGGCCAUUUAACUGGAAUUCUCGGGUGCCAA | 1.24 |
